Results from different studies.
Lines come from different studies, so protocols differ.
Target: Amine oxidase [flavin-containing] B (MAOB, Homo sapiens, UniProt P27338)
Chain of UniProt P27338 (whole entry, looked up): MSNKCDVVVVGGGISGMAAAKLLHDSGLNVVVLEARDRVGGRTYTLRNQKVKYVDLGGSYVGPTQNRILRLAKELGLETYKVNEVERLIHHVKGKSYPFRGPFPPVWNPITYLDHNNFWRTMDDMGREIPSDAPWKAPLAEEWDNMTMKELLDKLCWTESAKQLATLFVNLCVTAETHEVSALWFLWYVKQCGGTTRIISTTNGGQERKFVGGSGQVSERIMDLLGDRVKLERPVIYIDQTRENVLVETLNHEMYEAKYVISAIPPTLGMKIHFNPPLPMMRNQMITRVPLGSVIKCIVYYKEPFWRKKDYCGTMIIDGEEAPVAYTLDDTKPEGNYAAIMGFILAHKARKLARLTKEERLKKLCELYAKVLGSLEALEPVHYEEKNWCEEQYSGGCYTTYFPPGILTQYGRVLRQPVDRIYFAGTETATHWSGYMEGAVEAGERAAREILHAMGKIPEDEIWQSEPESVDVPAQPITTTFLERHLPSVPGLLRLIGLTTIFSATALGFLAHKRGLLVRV
Observed: enzyme activity
Mode: inhibitor
Concentration: 10 µM

Compound | test | remaining activity [%]
NC(=S)N/N=C/c1cccc(OCc2ccccc2)c1 | absorbance | 13.6
O=C(/C=C/c1ccc(F)cc1)c1ccc(N2CCNCC2)cc1 | – | 9.91
O=C(/C=C/c1ccccc1Br)c1cc2ccccc2oc1=O | – | 69.6
O=C1c2ccccc2N(Cc2cccc(Cl)c2)C12CCCC2 | – | -3.28
O=C(/C=C/c1ccc(Cl)cc1)c1cc2ccccc2oc1=O | – | 60.1
N#Cc1ccc(CN2c3ccccc3C(=O)C23CCCC3)cc1 | – | 2.19
CNC(=S)N/N=C/c1ccc(OCc2ccccc2)cc1 | absorbance | 3.81
O=C1c2cc(Cl)ccc2N(Cc2ccccc2)C12CCCC2 | – | 29
CNC(=S)N/N=C/c1ccc(OCc2cccc(F)c2)cc1 | absorbance | 16.6
O=C1c2ccccc2N(Cc2ccc(F)cc2)C12CCCC2 | – | 57
CNC(=S)N/N=C/c1cccc(OCc2ccccc2)c1 | absorbance | 39.6
O=C(/C=C/c1ccc(Br)cc1)c1cc2ccccc2oc1=O | – | 31.6
O=C(/C=C/c1ccc(Br)cc1)c1ccc(N2CCNCC2)cc1 | – | 26.9
NC(=S)N/N=C/c1ccc(OCc2cccc(F)c2)cc1 | absorbance | -10.2
COc1ccc(/C=C/C(=O)c2ccc(N3CCNCC3)cc2)cc1 | – | 15
O=C(/C=C/c1cccc(F)c1)c1cc2ccccc2oc1=O | – | 39.3
Cc1ccc(/C=C/C(=O)c2ccc(N3CCNCC3)cc2)cc1 | – | 29.5
O=C1c2cc(F)ccc2N(Cc2ccccc2)C12CCCC2 | – | 43.6
S=C(N/N=C/c1ccccc1OCc1ccccc1)Nc1ccccc1 | absorbance | 64.3
O=C(/C=C/c1ccc([N+](=O)[O-])cc1)c1ccc(N2CCNCC2)cc1 | – | 35.1
